Measured values collected from several papers.
Numbered parts are unrelated; each lists some results of a single study.

Series 1 — technique: protein binding microarray; molecule type: double-stranded DNA, one strand shown; sample: in vitro; tested at: not given; reference: not given; direction: higher = stronger binding
Target: Histone acetyltransferase KAT6A, winged helix 2, GST fusion (KAT6A, Homo sapiens, UniProt Q92794, residues 85-181)
Notes: 8-mer, flanks averaged, mean of 2 arrays, mostly near background
Target sequence (chain): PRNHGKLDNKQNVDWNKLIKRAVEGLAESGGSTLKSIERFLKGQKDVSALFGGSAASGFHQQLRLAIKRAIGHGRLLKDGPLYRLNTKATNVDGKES
Strand	E-score
AGATTGAT	-0.0795
ATGATACA	-0.0533
CTGCGGCA	0.137
AGACGCCA	-0.0144
CATTTGAA	-0.133
AGACTAAT	0.043
ATGCTGAA	0.0316
AGCTCTAT	-0.103
GGAACGAA	0.0385
CTCGCCCA	0.164
GAATGGTA	-0.134
CCGAACGA	0.105
AGTGGTTC	-0.14
CGATTACG	-0.288
ATTGCACG	0.0271
TTGTTAAA	-0.00658
CAGTACAC	0.0182
CACAAAGA	0.0876

Series 2 — technique: RNA Bind-n-Seq; molecule type: RNA; sample: in vitro; tested at: 1 µM; notes: whole 134-nt RNA, ends assumed; together with: 150 mM KCl; reference: input library; direction: higher = stronger binding
Target: Ras GTPase-activating protein-binding protein 1, C-terminal RGG region (G3BP1, Homo sapiens, UniProt Q13283)
UniProt Q13283, sequence (whole entry, looked up): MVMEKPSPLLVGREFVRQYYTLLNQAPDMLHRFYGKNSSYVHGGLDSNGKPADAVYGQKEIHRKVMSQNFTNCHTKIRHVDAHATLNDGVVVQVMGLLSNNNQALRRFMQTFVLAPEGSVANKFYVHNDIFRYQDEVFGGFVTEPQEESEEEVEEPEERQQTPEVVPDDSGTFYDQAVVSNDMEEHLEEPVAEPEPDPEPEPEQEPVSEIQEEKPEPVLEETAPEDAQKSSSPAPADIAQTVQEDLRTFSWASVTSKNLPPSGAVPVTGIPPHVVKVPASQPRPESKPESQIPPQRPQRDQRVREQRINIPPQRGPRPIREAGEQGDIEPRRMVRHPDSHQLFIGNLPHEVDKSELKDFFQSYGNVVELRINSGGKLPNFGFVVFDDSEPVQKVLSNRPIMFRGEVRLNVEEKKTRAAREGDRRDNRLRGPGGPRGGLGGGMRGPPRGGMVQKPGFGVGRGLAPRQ
All sequences stand within: GGGAGUUCUACAGUCCGACGAUC … UGGAAUUCUCGGGUGUCAAGG
Strand	log2 enrichment
UCAAGUCCUGUGCUACACAUCGUAUGUACCGAAUCGGAGGUUUUUGGUUUUUGGAAAGUAUUAUGUUACGCCGUUCGGAUCUGCACUUCC	-1.3
CUGUGCUACACAUCGUAUGUACCGAAUCGGGUUUUUUUGGGUUUUUUUGGGGUUUUUUUGGGAAAGUAUUAUGUUACGCCGUUCGGAUCU	-1
CCUCAAGUCCUGUGCUACACAUCGUAUGUACCGAAUCGGUUUUUGGAGGAGGAAAGUAUUAUGUUACGCCGUUCGGAUCUGCACUUCCAG	-0.702
UCCUGUGCUACACAUCGUAUGUACCGAAUCGGGUUUUUGGGAAAAAAAGGGUUUUUGGGAAAGUAUUAUGUUACGCCGUUCGGAUCUGCA	-0.714
UGCUUCUCUAUGGAAAGGACUUUCCCCCAAGCUGGACGAGGCAUUAAGAAGGAUAGAGGACUCCAGCAGGCUGACUCUACACUUCAUCAU	-0.776
UGUCAGGAUUAUGAAGAAGCUGUGCUCUUGCUGUUAGAAGGAGCUGCCUGGGAAGAAGCUUUGAGGCUGGUAAGAAUCUUGUAAAUCCUC	-1.69
ACCAUGCAGGUGGGCAUCUUUGGGAAGUGGGGCAAGGGGGGGAUAGGGAGGGGGGUAACACUUUGGGAACAGGUGGUCCCAGGACGUUUC	1.82
CUGUGCUACACAUCGUAUGUACCGAAUCGGCCCCCCCGGGGCCCCCCCGGGCCCCCCCGGGAAAGUAUUAUGUUACGCCGUUCGGAUCUG	-2
CCUCAAGUCCUGUGCUACACAUCGUAUGUACCGAAUCGGUUUGGUGGAAAGGAAAGUAUUAUGUUACGCCGUUCGGAUCUGCACUUCCAG	-0.605

Series 3 — technique: universal PBM; molecule type: double-stranded DNA, one strand shown; sample: in vitro; tested at: not given; direction: higher = stronger binding
Target: Sal-like protein 4, full length isoform B (SALL4, Homo sapiens, UniProt Q9UJQ4-2, residues 1-616)
Notes: 8-mer, flanks averaged, mean of replicates
Target sequence (chain): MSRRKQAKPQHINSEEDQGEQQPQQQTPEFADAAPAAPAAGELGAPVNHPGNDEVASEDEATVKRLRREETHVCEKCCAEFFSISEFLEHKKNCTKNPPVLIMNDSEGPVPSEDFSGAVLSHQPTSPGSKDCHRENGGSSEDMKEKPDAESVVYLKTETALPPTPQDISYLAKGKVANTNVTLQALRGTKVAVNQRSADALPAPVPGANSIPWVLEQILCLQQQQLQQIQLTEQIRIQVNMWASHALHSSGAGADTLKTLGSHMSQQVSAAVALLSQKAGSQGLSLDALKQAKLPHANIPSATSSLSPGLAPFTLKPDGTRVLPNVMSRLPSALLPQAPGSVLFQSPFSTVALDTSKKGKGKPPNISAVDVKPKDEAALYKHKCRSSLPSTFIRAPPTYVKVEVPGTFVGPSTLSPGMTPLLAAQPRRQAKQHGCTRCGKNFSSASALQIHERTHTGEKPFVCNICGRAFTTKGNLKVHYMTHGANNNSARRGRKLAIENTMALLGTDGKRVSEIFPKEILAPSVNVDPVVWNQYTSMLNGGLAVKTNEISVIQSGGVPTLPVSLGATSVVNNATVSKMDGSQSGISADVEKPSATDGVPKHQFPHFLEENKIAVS
Strand	E-score
ACGACGGC	-0.246
TGGGAGAA	0.0139
CGCGACGA	-0.101
CCAGAGCC	-0.25
ATGTGCTG	0.0378
AGCCGTAT	0.0729
CTACCCGA	-0.0755
AGTCTATC	-0.00757
CCCCTTTA	-0.0135
GCTGGAAA	-0.0494
ATAGTGCG	0.0216
AAAAGAGG	0.0208
ATGGCGGA	-0.238
TCCGTACA	0.0425
CGTAAGCA	-0.161
AAGCAATT	0.24
CTGGTGAC	-0.238
ATAGGAAG	0.158
ATCACGAA	0.134
AGGAGCAA	-0.11
CCTGCGCC	-0.237

Series 4 — technique: RNA Bind-n-Seq; molecule type: RNA; sample: in vitro; tested at: not given; reference: input RNA pool; direction: higher = stronger binding
Target: RING finger protein unkempt homolog, zinc fingers 1-6, GST-SBP tag (UNK, Homo sapiens, UniProt Q9C0B0, residues 30-357)
UniProt Q9C0B0, sequence (30-357, looked up): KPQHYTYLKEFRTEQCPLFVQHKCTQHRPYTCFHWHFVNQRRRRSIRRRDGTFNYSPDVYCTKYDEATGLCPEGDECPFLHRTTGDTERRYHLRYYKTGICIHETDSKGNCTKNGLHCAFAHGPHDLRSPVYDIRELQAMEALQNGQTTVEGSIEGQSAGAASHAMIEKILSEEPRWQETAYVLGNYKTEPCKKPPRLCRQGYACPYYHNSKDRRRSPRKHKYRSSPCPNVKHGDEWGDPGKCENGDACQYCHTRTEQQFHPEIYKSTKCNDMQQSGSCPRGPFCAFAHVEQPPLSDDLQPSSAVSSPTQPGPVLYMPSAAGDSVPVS
Notes: RNA with constant flanks, human-mouse chimeric sites, ends assumed
All sequences stand within: GGGAGUUCUACAGUCCGACGAUC … CAACAGAGGAUUGAGCAUCA
Strand	bound/input enrichment [ratio]
UUGAAAACUGAUUCAAGUAAGUUUGAGUAUCACAAUGUUAGCUUUCUAAUUCCACACAAGUACUUGGUUUUUACAGUUUAUAAUCUGACAUCACCCCCCGUUUAUAAGUAAAGAGCAACU	0.952
GAUAAGAAAAGCUUGUUGGAGACCCGCUUGCAUGUCACUGGUAGAGACCUGAGGUGUCAAAUAGCUGAAACUUUCGGACUUCAAGAAAAUUAUAUCAAGAUCGUAAUAAAUAAGAAACAG	0.362
CAGACUGUGUCAUACUUUUUAGACAUUCACAUCAGACUUACAGAGCACCUGGCCACAUUCUAGGUUUGUGUUAUUUCUCAGCUAUGGGGGUAUGAUUAUGAGAACACUGCUUAACUAAUG	0.762
AAUGUUCUUAAUAUUUUUGAAUAAAUGAAGCUAAAAUGUCUGCUUUUGGUACAACACGCAUUAAUAAAAGGUUAAGUUUUGUUUUCCACUGAAGUACUAUUUAACAUACAUCUCAGAAAC	0.226
AAUUUCCUGUCAUACUUUUUAGACAUUCACAUCAGACUUACAGAGCACCUGGCCACAUUCUAGGUUUGUGUUAUUUCUAAGCCUUUUAUAUGAUCAAAUGAGAACACUGGCAGCCAGAUG	0.436
ACCAUUUUCGCGGUUCAGGCUUUGUGUUGUAUUUACUUACGGUAUUAAAUUAUUAUUCUGCUUAGCUUAUAAUAAGGAUAAUUGCAUUUAAAGAGGUUACUGAAUGUUGUUAUUGUUCUU	0.991
CGGAGCCCUCCUCUCCCACAGGCCCAAGAUAUAACCCACCAGUGCCUUCUGUCUGCUUGUCAGCUCUGUCAAUCACGGCCCUGCCUUCACGCCCACACCAAGUGCCCAAAGUGGGGAGGG	0.326
GUAGCUGGGACUACAGAAAUGCUGGUAAUUUCAGUCACUUGCUGAUGACUUCUGAUGACCUAGCAAAUGUUGGCAUUCACUGCAAUAGAGAAGAUACUUCUGAGGACCCACGUCUAAGGU	0.358
